# Measurements of several laboratories.
# Parts stem from different laboratories: compare values within a part only. Positions count from the first letter of the parent shown.

# Set 1 — target: CCNE1, cyclin fold, Cln2 fusion (human); method: yeast growth competition, sequencing; matrix: yeast; setting: weak parent motif; baseline: not given; reading: higher = stronger binding
# Parent: SLBP docking peptide (human); ARYKRKLLINDFG
Variant,normalised enrichment score
K4I,0.62
I9E,0.39
F12D,0.627
L7D,0.123
K4Q,0.336
F12L,0.707
L7T,-0.0508
D11R,0.78
R5S,1.08
Y3R,0.0131

# Set 2 — method: DHFR PCA, deep sequencing; matrix: yeast; together with: (+)-ABA 1.4 µM; baseline: wild-type fitted maximum; reading: higher = stronger binding
# Target: ABI1, truncated, D143A, DHFR fusion (Arabidopsis thaliana)
# Setting: methotrexate growth selection, single substitutions
# Parent: PYL1, truncated, DHFR fusion (Arabidopsis thaliana); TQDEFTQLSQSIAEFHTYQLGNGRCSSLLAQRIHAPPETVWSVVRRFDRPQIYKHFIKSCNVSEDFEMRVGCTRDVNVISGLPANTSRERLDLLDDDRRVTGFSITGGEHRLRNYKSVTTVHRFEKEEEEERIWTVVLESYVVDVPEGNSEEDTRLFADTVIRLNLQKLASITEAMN; partner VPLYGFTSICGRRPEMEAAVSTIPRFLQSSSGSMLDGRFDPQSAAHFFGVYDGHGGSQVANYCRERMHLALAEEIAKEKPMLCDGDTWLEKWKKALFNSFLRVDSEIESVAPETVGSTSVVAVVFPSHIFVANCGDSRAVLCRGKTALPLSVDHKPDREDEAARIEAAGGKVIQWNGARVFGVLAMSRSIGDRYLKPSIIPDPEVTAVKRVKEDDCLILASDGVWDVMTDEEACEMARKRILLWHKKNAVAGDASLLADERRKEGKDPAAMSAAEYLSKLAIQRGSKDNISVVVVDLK
Variant,relative binding score [%]
K126Q,67.5
H34V,28.7
D75R,44.2
I162S,8.85
A84T,11.9
P83Y,-4.93
D95M,3.17
S11Y,46.6
V70F,-3.27
R45N,-8.66
L91R,1.37
S27K,-5.98
C25D,-9.49

# Set 3 — target: FOSL1, bZIP domain (human); method: DHFR protein complementation; matrix: yeast; baseline: wild-type JUN-FOS pair; reading: higher = stronger binding
# Setting: single substitutions, most at no-binding floor
# Parent: JUN, bZIP domain (human); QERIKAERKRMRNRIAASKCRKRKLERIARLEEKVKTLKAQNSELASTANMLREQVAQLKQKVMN; partner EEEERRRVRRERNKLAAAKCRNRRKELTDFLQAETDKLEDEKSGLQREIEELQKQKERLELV
Variant,binding fitness
L38Y,-1.38 natural log
S47I,-0.407 natural log
S47V,-0.256 natural log
L38M,-0.778 natural log
E54L,-0.67 natural log
T48M,-0.358 natural log
A29R,-0.498 natural log
A40R,-0.401 natural log
E44N,-0.681 natural log
R30Q,-0.161 natural log
K36D,-0.481 natural log

# Mixed results
Molecule,target,test,test system,setting,how to read,measurement,result
"PhoQ, residues 284 288 289 292 302 303 TTCLQL","PhoP, residues 12 14 15 18 19 LHTVM (Escherichia coli, UniProt P23836)","Sort-seq, measured: YFP reporter",E. coli,"PhoQ-PhoP variant library, together with: 10 µM Mg2+","baseline: high Mg2+ state, higher = stronger signaling",fold induction,5.72

# For quick reference, copied from above (set 2):
Variant,relative binding score [%]
P83Y,-4.93
D95M,3.17
S11Y,46.6
